Experimental data gathered from unrelated publications.
Compare with care: the assays were run in different laboratories. “And” joins repeats or separate records; there may be more than shown.
Cell line: TK-10

Structure (SMILES)	assay	setting	how to read	quantity	result
O=C1NCCc2[nH]c(-c3ccncc3)cc21	MTS	NCI60 panel	–	IC50	> 10 µM
Cc1n[nH]c2nc(-c3ccc(Cl)cc3)c3c(NC(=O)c4ccccc4)nnc-3n12	SRB	10 µM, NCI60 single-dose screen	baseline: untreated	cell growth	112%
CCCN1CCN(c2ccc3nc(-c4ccc5nc(-c6cc(OC)ccc6OC)[nH]c5c4)[nH]c3c2)CC1	SRB	10 µM, 48 h	–	growth percent	118%
C#C[C@@]1(O)[C@@H](CO)O[C@@H](n2cc(Cl)c3c(N)ncnc32)[C@@H]1O	SRB	NCI-60 screen	–	TGI	0.891 µM and 1.72 µM
Cc1cc(-c2ccccc2)n(-c2nc(-c3ccc(Cl)cc3)c3c(NC(=O)c4ccccc4)nnc-3[nH]2)n1	SRB	10 µM, NCI60 single-dose screen	baseline: untreated	cell growth	102%
CCOc1ccc(-c2nc3cc(-c4nc5cc(N6CCN(C)CC6)ccc5[nH]4)ccc3[nH]2)cc1OCC	SRB	10 µM, 48 h	–	growth percent	91%
C#C[C@@]1(O)[C@@H](CO)O[C@@H](n2cc(Br)c3c(N)ncnc32)[C@@H]1O	SRB	NCI-60 screen	–	TGI	85.8 µM and > 100 µM
Cc1cc(C)n(C(=S)[S][Au][PH](CCCCCC[PH]([Au][S]C(=S)n2nc(C)cc2C)(c2ccccc2)c2ccccc2)(c2ccccc2)c2ccccc2)n1	cell growth, NCI-60 screen	renal cancer	–	log10 TGI	> -4
O=C(Nc1nnc2n3c(Cc4ccccc4)n[nH]c3nc(-c3ccc(Cl)cc3)c1-2)c1ccccc1	SRB	10 µM, NCI60 single-dose screen	baseline: untreated	cell growth	120%
CCCN1CCN(c2ccc3[nH]c(-c4ccc5[nH]c(-c6cc(OC)c(OC)c(OC)c6)nc5c4)nc3c2)CC1	SRB	10 µM, 48 h	–	growth percent	125%
Cn1cncc1C1=CN(c2ncnc3[nH]cnc23)CCS1	–	renal cancer	–	TGI	95.5 µM
Cc1cc(C)n(-c2nc(-c3ccc(Cl)cc3)c3c(NC(=O)c4ccccc4)nnc-3[nH]2)n1	SRB	10 µM, NCI60 single-dose screen	baseline: untreated	cell growth	115%
COc1ccc(OC)c(-c2nc3ccc(-c4nc5ccc(N6CCN(C)CC6)cc5[nH]4)cc3[nH]2)c1	SRB	10 µM, 48 h	–	growth percent	112%
Cc1cc(=O)[nH]n1-c1nc(-c2ccc(Cl)cc2)c2c(NC(=O)c3ccccc3)nnc-2[nH]1	SRB	10 µM, NCI60 single-dose screen	baseline: untreated	cell growth	109%
CCCCN1CCN(c2ccc3[nH]c(-c4ccc5[nH]c(-c6ccc(C(F)(F)F)cc6)nc5c4)nc3c2)CC1	SRB	10 µM, 48 h	–	growth percent	-71.3%

Some of these lines once more:
Structure (SMILES)	assay	setting	how to read	quantity	result
Cc1cc(=O)[nH]n1-c1nc(-c2ccc(Cl)cc2)c2c(NC(=O)c3ccccc3)nnc-2[nH]1	SRB	10 µM, NCI60 single-dose screen	baseline: untreated	cell growth	109%
